Results collected from several papers.
Numbered parts are unrelated; each lists some results of a single study. Substitutions count along the parent as printed.

Block 1
Target: CCNA1, cyclin fold, Cln2 fusion (human)
Method: yeast growth competition, sequencing
Medium: yeast
Setting: weak parent motif
Reference: not given
Direction: higher = stronger binding
Parent: SLBP docking peptide (human); ARYKRKLLINDFG; partner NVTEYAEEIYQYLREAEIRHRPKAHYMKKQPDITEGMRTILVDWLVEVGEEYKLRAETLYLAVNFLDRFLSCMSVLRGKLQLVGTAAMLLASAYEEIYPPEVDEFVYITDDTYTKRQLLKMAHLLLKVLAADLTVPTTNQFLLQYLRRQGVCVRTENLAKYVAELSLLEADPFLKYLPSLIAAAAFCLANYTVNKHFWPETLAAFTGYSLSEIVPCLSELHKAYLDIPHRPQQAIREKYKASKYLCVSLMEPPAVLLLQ
Variant	normalised enrichment score
YRYKRKLLINDFG [A1Y]	-0.145
ATYKRKLLINDFG [R2T]	0.859
ARYKIKLLINDFG [R5I]	0.268
ARYKRKLLINDCG [F12C]	0.0742
ARYKRKLPINDFG [L8P]	0.399
ARCKRKLLINDFG [Y3C]	0.285
ARYHRKLLINDFG [K4H]	0.372
ARWKRKLLINDFG [Y3W]	0.0961
DRYKRKLLINDFG [A1D]	0.479
ARYKRKLCINDFG [L8C]	0.143
ARDKRKLLINDFG [Y3D]	0.52
ARYKTKLLINDFG [R5T]	0.189
ARYKRKSLINDFG [L7S]	0.273

Block 2
Target: Histone acetyltransferase KAT6A, winged helix 2, GST fusion (KAT6A, Homo sapiens, UniProt Q92794, residues 85-181)
Method: protein binding microarray
Form: double-stranded DNA, one strand shown
Medium: in vitro
Concentration: not given
Setting: 8-mer, flanks averaged, mean of 2 arrays, mostly near background
Reference: not given
Direction: higher = stronger binding
Construct (chain): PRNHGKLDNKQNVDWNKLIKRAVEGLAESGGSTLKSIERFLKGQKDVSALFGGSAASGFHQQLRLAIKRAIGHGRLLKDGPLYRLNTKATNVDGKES
Oligonucleotide	E-score
CGACTTCA	-0.0282
ACAGTCCC	-0.223
ACCTGGGA	-0.146
CAATGTAA	-0.0226
CCACCTGC	0.2
CGAACAAA	0.101
CTGCTGCA	0.109
GCGGATCA	0.109
AAAGCGGC	0.186
CACATGGG	-0.173
AGGAACTA	-0.214
GCTTCCGA	0.118
TACATAAA	-0.159
GTGCATAA	0.141
AGCATATA	0.0916
GTAGCGTA	-0.00332
GGCCGGAC	0.139
GTCCTTTA	-0.0592
CGTCGGGC	0.0832
ACACACGA	-0.141
CTCGTTTA	0.059
ACACTGTA	-0.218
GGACAACA	-0.0651
GTACGCTA	-0.0929

Block 3
Target: Ras GTPase-activating protein-binding protein 1, C-terminal RGG region (G3BP1, Homo sapiens, UniProt Q13283)
Chain of UniProt Q13283 (whole entry, looked up): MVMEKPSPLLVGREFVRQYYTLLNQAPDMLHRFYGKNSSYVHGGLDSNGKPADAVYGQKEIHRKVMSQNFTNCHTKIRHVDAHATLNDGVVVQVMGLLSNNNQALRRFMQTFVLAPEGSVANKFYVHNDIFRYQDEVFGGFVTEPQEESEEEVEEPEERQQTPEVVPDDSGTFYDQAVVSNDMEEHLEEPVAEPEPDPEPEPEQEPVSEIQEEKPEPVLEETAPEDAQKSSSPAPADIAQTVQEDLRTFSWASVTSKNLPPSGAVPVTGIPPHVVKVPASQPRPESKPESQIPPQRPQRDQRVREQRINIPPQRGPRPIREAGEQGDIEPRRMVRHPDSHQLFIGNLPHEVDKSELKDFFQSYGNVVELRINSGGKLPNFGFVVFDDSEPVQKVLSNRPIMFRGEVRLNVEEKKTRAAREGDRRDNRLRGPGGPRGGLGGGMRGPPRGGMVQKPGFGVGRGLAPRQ
Method: RNA Bind-n-Seq
Form: RNA
Medium: in vitro
Concentration: 1 µM
Setting: whole 134-nt RNA, ends assumed
With: 150 mM KCl
Reference: input library
Direction: higher = stronger binding
Oligonucleotide	log2 enrichment
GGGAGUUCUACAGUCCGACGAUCUCCUGUGCUACACAUCGUAUGUACCGAAUCGGGAAAAAAAGGGUUUUUGGGAAAAAGGGAAAGUAUUAUGUUACGCCGUUCGGAUCUGCAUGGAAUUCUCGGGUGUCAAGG	-0.615
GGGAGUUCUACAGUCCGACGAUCAAGUCCUGUGCUACACAUCGUAUGUACCGAAUCAAACCCAAAUUUAAACCCCCAAAAAAGUAUUAUGUUACGCCGUUCGGAUCUGCACUUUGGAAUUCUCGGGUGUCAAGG	-1.04
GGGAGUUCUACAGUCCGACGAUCCUGUGCUACACAUCGUAUGUACCGAAUCGGGGUUUUUUUGGGGUUUUUGGGGAAAAAGGGGAAAGUAUUAUGUUACGCCGUUCGGAUCUGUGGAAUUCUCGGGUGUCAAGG	-0.26
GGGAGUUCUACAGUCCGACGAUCUCAAGUCCUGUGCUACACAUCGUAUGUACCGAAUCGGUUUUUUUGGAAAGGAGGAAAGUAUUAUGUUACGCCGUUCGGAUCUGCACUUCCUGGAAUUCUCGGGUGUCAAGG	-1.26
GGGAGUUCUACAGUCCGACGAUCCCUGUGCUACACAUCGUAUGUACCGAAUCGGGGAAAGGGGUUUUUUUGGGGUUUUUGGGGAAAGUAUUAUGUUACGCCGUUCGGAUCUGCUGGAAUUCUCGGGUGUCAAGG	0.337
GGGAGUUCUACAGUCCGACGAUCACCAUGCAGGUGGGCAUCUUUGGGAAGUGGGGCAAGAAAGGGAUAGGGAGGGGGGUAACACUUUGGGAACAGGUGGUCCCAGGUCGUUUCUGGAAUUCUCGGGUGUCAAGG	-1
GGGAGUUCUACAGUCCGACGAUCAAGUCCUGUGCUACACAUCGUAUGUACCGAAUCGGGGCCCCGGCCCCGGCCCCGGGAAAGUAUUAUGUUACGCCGUUCGGAUCUGCACUUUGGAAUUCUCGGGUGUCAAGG	-1.97
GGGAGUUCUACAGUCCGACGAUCCCUGUGCUACACAUCGUAUGUACCGAAUCGGAAAAAAAGGGAAAAAAAGGAAAAAAAGGGAAAGUAUUAUGUUACGCCGUUCGGAUCUGCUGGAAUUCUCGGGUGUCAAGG	-1.92
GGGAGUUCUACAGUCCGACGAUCUUGUGAUAGCCAAGUGGGACUACACCGCCCAGCAGGACCAGGAGCUGGACAUCAAGAAGAACGAGCGGCUGUGGUUGCUGGACGACUCCAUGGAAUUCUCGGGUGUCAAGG	-1.72

Block 4
Target: Interferon regulatory factor 3, full length, phosphomimetic (IRF3, Homo sapiens, UniProt Q14653, residues 1-427, S386D/S396D/S398D/S402D/T404D/S405D)
Method: protein-binding microarray
Form: double-stranded DNA, one strand shown
Medium: in vitro
Concentration: 2540 nM top
Setting: 60-bp whole probe
With: salmon DNA 0.4 mg/ml
Reference: random background probes
Direction: higher = stronger binding
All sequences stand within: GCCTAGCAC … GTCTTGATTCGCTTGACGCTGCTG
Construct (chain): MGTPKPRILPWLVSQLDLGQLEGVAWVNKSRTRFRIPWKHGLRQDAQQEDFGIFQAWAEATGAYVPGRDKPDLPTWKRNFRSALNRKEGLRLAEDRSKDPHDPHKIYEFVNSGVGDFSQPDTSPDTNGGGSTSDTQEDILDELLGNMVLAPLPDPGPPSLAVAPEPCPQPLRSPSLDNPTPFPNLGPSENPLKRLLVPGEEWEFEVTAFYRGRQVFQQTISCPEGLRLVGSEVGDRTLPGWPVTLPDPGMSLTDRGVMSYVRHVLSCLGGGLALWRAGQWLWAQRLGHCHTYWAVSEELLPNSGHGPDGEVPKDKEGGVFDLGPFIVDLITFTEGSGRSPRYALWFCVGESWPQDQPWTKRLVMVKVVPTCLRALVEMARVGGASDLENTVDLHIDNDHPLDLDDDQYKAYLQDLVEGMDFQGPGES
Oligonucleotide	fitted relative affinity [z-score]
TTAGATATCGGGACTGCATTAGTGCTA	0.0116
TTTGGTATCGGGACTGGGTTAGTGCTA	1.73
GACGGTATCGACTTTCGGGCCGTGCTA	0.868
TCAACAATGATGTTTTGAACTGTGCTA	-0.347
GACGGTATCGATTTCGGGACGTGCTAG	4.01
TTAGGTTTCGGGACCGGGTTAGTGCTA	3.77
TTAGGTTTCGGGTTTCGGATAGTGCTA	6.26
TTAGGTCTACTTATCCTTTAGTGCTAG	0.587
CTTCCTTTACTTTCTTTTTTGTGCTAG	4
TTAGGACTGGGGTATCGGCTAGTGCTA	-0.937
GACGGTATCCTTATCCTGAGGTGCTAG	5.1
TCATGCCTATTTTTCACACTGTGCTAG	0.29
TCATAAATCTTTTTCCCACTGTGCTAG	1.01
TACGATTTCAGTTCCGAGACGTGCTAG	2.64
TCATTTTTACTTTCTGAACTGTGCTAG	4.16
GTGCCTTTTTTTTTTTTTCTGTGCTAG	2.82
ATTGAGAATTCCACTCCGCTGTGCTAG	-0.0688
GACGGTTTCAGACTGGGGACGTGCTAG	2.58
ACTTAAACTAGAAACTGACTTGTGCTA	0.213

A few entries again (block 2):
Oligonucleotide	E-score
GGCCGGAC	0.139
GTCCTTTA	-0.0592
CGTCGGGC	0.0832
ACACACGA	-0.141
